Published values pooled from the literature.
Values joined by “and” are separate records of one study, mostly repeats; a detail may differ. ± marks the error that the study gave. Values after ≈ are worked out from the molar mass of the structure shown.
Organism: Aspergillus fumigatus

Compound | assay | system | conditions | how to read | endpoint | result
C#Cc1ccc(O)c(C=NNC(=O)c2ccc(Br)cc2Br)c1 |  | 293 | unit not given, added: voriconazole | lower = more synergy | FICI | 2
CC(C)(C)Cn1c(N)nc2ccc(-c3[nH]c(C(C)(C)C)nc3-c3ccc(F)cc3)nc21 |  |  | 20 µM | reference: untreated | metabolic activity | ≥ 80%
O=[N+]([O-])[O-].[Ag+] | broth microdilution, turbidity | ATCC 13073 | 24 h, as nitrate salt |  | MIC | 0.4 µg/mL
CC[C@@H](C)[C@H]1O[C@@H](c2c(O)c(-c3ccccc3)cn(OC)c2=O)[C@H](C)C[C@@H]1C | cell growth | ATCC 90906 |  |  | IC50 | > 20 µg/mL
COC(=O)C1=C(C)NC(C)=C(C(=O)OC(C)(C)CN(C)CCC(c2ccccc2)c2ccccc2)C1c1cccc([N+](=O)[O-])c1 (stereo not drawn) | Alamar blue |  | 1.95 µg/mL, 48 h, added: caspofungin 0.2 µg/mL |  | metabolic activity | 63% and 56.8%
C#Cc1ccc(O)c(C=NNC(=O)c2cc(Br)cc(Br)c2O)c1 |  | 293 | unit not given, added: voriconazole | lower = more synergy | FICI | 2
CC[C@H](C)C[C@H](C)CCCCCCCCC(=O)N[C@H]1C[C@@H](O)[C@@H](NCCN)NC(=O)[C@@H]2[C@@H](O)CCN2C(=O)[C@H]([C@H](O)CCN)NC(=O)[C@H]([C@H](O)[C@@H](O)c2ccc(O)cc2)NC(=O)[C@@H]2C[C@@H](O)CN2C(=O)[C@H]([C@@H](C)O)NC1=O | broth microdilution | BNCC 122691 |  |  | MIC | 2 µg/mL (≈ 1.83 µM)
C#Cc1cccc(C=NNC(=O)c2ccc(Br)cc2)c1O |  | 293 | unit not given, added: voriconazole | lower = more synergy | FICI | 2
OC(Cn1cncn1)(Cn1cncn1)c1ccc(F)cc1F | broth microdilution |  |  |  | MLC | 16 ± 2 µg/mL (≈ 52.2 µM)

Excerpt of the above:
Compound | assay | system | conditions | how to read | endpoint | result
CC[C@@H](C)[C@H]1O[C@@H](c2c(O)c(-c3ccccc3)cn(OC)c2=O)[C@H](C)C[C@@H]1C | cell growth | ATCC 90906 |  |  | IC50 | > 20 µg/mL
